Assay results of several laboratories.
Compare with care: the assays were run in different laboratories. Numbers after ± are the reported error.
ABCG2: Broad substrate specificity ATP-binding cassette transporter ABCG2 (ABCG2, Homo sapiens, UniProt Q9UNQ0)
Chain of UniProt Q9UNQ0 (whole entry, looked up): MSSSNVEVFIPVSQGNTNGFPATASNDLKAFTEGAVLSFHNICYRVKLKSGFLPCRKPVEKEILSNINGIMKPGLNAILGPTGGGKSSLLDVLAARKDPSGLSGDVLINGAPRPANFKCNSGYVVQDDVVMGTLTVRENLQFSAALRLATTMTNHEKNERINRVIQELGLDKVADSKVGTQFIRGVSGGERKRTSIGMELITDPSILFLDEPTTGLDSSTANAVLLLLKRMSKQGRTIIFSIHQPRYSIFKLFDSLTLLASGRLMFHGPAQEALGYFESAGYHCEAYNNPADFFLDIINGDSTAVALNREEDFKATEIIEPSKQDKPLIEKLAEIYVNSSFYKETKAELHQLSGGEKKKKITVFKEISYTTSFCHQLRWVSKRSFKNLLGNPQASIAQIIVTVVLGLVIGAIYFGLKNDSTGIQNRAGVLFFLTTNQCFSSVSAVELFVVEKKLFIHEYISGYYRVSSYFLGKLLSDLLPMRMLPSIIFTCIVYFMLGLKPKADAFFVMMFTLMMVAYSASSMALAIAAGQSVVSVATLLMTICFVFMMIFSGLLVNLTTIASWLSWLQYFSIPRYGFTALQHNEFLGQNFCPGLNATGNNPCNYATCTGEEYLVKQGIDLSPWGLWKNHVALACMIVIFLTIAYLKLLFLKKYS
Chain of UniProt P11509 (whole entry, looked up): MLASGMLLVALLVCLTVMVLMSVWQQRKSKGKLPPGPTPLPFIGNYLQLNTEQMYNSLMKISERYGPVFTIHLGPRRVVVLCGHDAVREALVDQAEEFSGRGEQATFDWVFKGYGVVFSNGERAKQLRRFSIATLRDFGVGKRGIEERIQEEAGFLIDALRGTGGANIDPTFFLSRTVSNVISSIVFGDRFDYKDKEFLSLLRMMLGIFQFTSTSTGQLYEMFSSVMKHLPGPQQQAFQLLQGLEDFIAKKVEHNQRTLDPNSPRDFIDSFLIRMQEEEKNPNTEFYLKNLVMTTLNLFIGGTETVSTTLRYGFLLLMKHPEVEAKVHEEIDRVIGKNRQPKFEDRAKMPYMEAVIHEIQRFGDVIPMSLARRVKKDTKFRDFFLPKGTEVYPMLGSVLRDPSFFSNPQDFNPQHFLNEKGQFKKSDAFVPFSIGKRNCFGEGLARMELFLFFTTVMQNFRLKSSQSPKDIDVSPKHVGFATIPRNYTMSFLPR
Chain of UniProt P00760 (whole entry, looked up): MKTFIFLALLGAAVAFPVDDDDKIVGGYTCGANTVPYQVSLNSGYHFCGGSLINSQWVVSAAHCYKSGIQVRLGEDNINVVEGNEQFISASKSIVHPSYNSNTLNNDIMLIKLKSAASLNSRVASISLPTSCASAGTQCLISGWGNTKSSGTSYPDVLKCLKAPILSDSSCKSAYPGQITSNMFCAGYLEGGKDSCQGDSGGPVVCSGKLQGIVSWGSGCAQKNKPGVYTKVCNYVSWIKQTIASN

| Structure (SMILES) | tested on | test | test system | conditions | measurement | result |
| --- | --- | --- | --- | --- | --- | --- |
| O=c1[nH]cc(F)c(=O)[nH]1 | NHDF | MTT |  | 72 h, 10% FBS | IC50 | > 200 µM |
| CCCCCCCCCCNC | Oncorhynchus mykiss | liver S9 substrate depletion | rainbow trout liver S9 | tested individually | intrinsic clearance in vitro | 0.335 mL/h/mg S9 protein |
| CCCC[P+](CCCC)(CCCC)CCCC | Caco-2 |  |  |  | IC50 | 16500 ± 3240 µM |
| C=C(C[C@@H]1CCOc2ccccc21)c1ccc(F)cc1 | RAW264.7 | cytotoxicity, CCK-8 |  | 24 h | IC50 | 28.2 µM |
| O=C1NN=C(N=Cc2ccccc2)C1=NNn1c(-c2ccccc2)nc2ccccc2c1=O | NIH 3T3 | cytotoxicity, MTT |  |  | IC50 | 156 µM |
| Cc1c(O)cc(C[C@]23C[C@H](C[C@H](C)O2)c2c4c(c(O)c(C)c2O3)CO[C@@]2(C4)C[C@@H](O)C[C@H](C)O2)c(C=O)c1O | A549 | cell growth or viability |  |  | IC50 | 16.4 µM |
| C=C(C[C@@H]1CCSc2ccc(C)cc21)c1ccccc1 | RAW264.7 | cytotoxicity, CCK-8 |  | 24 h | IC50 | 82.7 µM |
| CC[C@H](C)[C@H](NC(=O)[C@H](CCC(=O)O)NC(=O)[C@H](CO)NC(=O)[C@@H](NC(=O)[C@@H](N)CO)C(C)C)C(=O)N[C@@H](CCC(N)=O)C(=O)N[C@@H](CC(C)C)C(=O)N[C@@H](CCSC)C(=O)N[C@@H](Cc1cnc[nH]1)C(=O)N[C@@H](CC(N)=O)C(=O)N[C@@H](CC(C)C)C(=O)NCC(=O)N[C@@H](CCCCN)C(=O)N[C@@H](Cc1cnc[nH]1)C(=O)N[C@@H](CC(C)C)C(=O)N[C@@H](CC(N)=O)C(=O)N[C@@H](CO)C(=O)N[C@@H](CCSC)C(=O)N[C@@H](CCC(=O)O)C(=O)N[C@@H](CCCN=C(N)N)C(=O)N[C@H](C(=O)N[C@@H](CCC(=O)O)C(=O)N[C@@H](Cc1c[nH]c2ccccc12)C(=O)N[C@@H](CC(C)C)C(=O)N[C@@H](CCCN=C(N)N)C(=O)N[C@@H](CCCCN)C(=O)N[C@@H](CCCCN)C(=O)N[C@@H](CC(C)C)C(=O)N[C@@H](CCC(N)=O)C(=O)N[C@@H](CC(=O)O)C(=O)N[C@H](C(=O)N[C@@H](Cc1cnc[nH]1)C(=O)N[C@@H](CC(N)=O)C(=O)N[C@@H](Cc1ccccc1)C(=O)O)C(C)C)C(C)C | Serine protease 1 (PRSS1, Bos taurus, UniProt P00760) | substrate, HPLC-UV | Tris buffer | 30 min, pH 6.5, 37 °C, with: bovine trypsin 0.5 mg, no SBTI | remaining intact compound | 0% |
| C=C(C[C@@H]1CCOc2ccccc21)c1ccccc1C | RAW264.7 | cytotoxicity, CCK-8 |  | 24 h | IC50 | 184 µM |
| O=c1[nH]c(=O)n([C@H]2C[C@H](O)[C@@H](CO)O2)cc1I | CEM-CCRF | cell growth, trypan blue exclusion |  | 6 d | IC50 | 2.7 µM |
| CCCN(CCc1ccccc1)C(=O)[C@@H]1OC(C(=O)O)=C[C@H](O)[C@H]1NC(C)=O | ABCG2 | JC-1 dye efflux, inhibitor, flow cytometry | ABCG2-overexpressing cells | with: JC-1 1 µM | IC50 | 1.37 ± 0.53 µM |
| CC(C)[C@H](NC(=O)[C@@H]1CCCN1C(=O)[C@H](CCCNC(=N)N)NC(=O)[C@H](CS)NC(=O)[C@H](Cc1c[nH]c2ccccc12)NC(=O)[C@H](CCCNC(=N)N)NC(=O)[C@@H](Cc1ccccc1)NC(=O)[C@H](Cc1c[nH]cn1)NC(=O)[C@H](CCC(=O)O)NC(=O)[C@H](CS)NC(=O)[C@H](CS)NC(=O)[C@H](CCCCN)NC(=O)[C@@H]1CC(=O)N[C@@H](CCCNC(=N)N)C(=O)N[C@@H](C)C(=O)N[C@@H](CC(=O)O)C(=O)N[C@H](Cc2ccc(O)cc2)C(=O)N1)C(N)=O [technetium-99m labelled] |  |  | C57 mice, bladder | iv, 0.037 MBq, 4 h | tissue uptake | 65.7 ± 4.62 %ID |
| Nc1ncnc2c1ncn2[C@H]1CC[C@@H](CO)O1 | CEM-CCRF | cell growth, trypan blue exclusion |  | 6 d | IC50 | > 100 µM |
| O=C1NN=C(N=Cc2ccc(O)cc2O)C1=NNn1c(-c2ccccc2)nc2ccccc2c1=O | NIH 3T3 | cytotoxicity, MTT |  |  | IC50 | 223 µM |
| CC(=O)N1CCN(c2cc(-c3ccco3)nc3cc(-c4cccc(Cl)c4)nn23)CC1 | ABCG2 | JC-1 dye efflux, inhibitor, flow cytometry | ABCG2-overexpressing cells | with: JC-1 1 µM | IC50 | 0.56 µM |
| Cc1cn([C@H]2C=C[C@@H](CO)O2)c(=O)[nH]c1=O | CEM-CCRF | cell growth, trypan blue exclusion |  | 6 d | IC50 | > 100 µM |
| C=C(C[C@@H]1CCSc2ccc(OC)cc21)c1ccccc1 | RAW264.7 | cytotoxicity, CCK-8 |  | 24 h | IC50 | 267 µM |
| CC1=NN(CNc2c(O)c(S(=O)(=O)O)cc3ccccc23)C(=O)C1=NNn1c(-c2ccccc2)nc2ccccc2c1=O | NIH 3T3 | cytotoxicity, MTT |  |  | IC50 | 206 µM |
| C=C(C[C@@H]1CCOc2ccc(Br)cc21)c1ccccc1 | RAW264.7 | cytotoxicity, CCK-8 |  | 24 h | IC50 | 57 µM |
| CC(=O)NCN1N=C(C)C(=NNn2c(-c3ccccc3)nc3ccccc3c2=O)C1=O | NIH 3T3 | cytotoxicity, MTT |  |  | IC50 | 272 µM |
| O=C1CC(c2ccccc2)Oc2ccccc21 (stereo not drawn) | Cytochrome P450 2A6 (CYP2A6, Homo sapiens, UniProt P11509) | substrate, reconstituted monooxygenase system, item: hydroxylated metabolite |  |  | Km | 19 µM |
